Published values of several laboratories.
A part holds a random share of what one study measured. Positions count from the first letter of the parent shown.

Set 1 — technique: RNAcompete; molecule type: RNA; matrix: in vitro; tested at: 20 nM; notes: 7-mer, probes averaged, single round; reference: mean of 7-mers; direction: higher = stronger binding; endpoint: 7-mer Z-score
Target: PABPC1L2, full length, GST fusion (mouse, UniProt A0ABA7IW68)
Residues (chain): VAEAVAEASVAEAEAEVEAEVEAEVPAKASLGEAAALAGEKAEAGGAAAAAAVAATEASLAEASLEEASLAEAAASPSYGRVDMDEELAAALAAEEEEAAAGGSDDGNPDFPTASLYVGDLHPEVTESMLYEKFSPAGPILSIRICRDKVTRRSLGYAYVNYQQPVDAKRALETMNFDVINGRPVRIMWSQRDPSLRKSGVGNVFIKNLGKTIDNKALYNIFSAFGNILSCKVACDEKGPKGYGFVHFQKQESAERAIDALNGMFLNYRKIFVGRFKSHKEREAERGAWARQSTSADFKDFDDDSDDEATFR
GUCCAAC: -0.0953
GGAAUAA: 0.642
UAGCGGU: -0.179
AGUACAG: -0.124
UUCUUAA: -0.209
CCUCUAA: -0.199
CCGUCAA: -0.351
AGUGGGG: 0.45
GUAAAUC: 0.106
UAGGAAA: 0.572
ACUAAUA: -0.0826
GAUUGGU: -0.224
CGCGUCU: -0.412
AAAAAAC: 24
AUACGCG: -0.0826
UCGGGCA: 0.0207
AGACUUC: -0.228
GGGCAAU: 0.403
AAACUUU: 0.744
UGAGCGC: -0.269
UCCCCGU: -0.518
AGCAGCC: 0.0986
GACUGGU: -0.238
UCAUUAG: -0.22
UCCGUCG: -0.335

Set 2 — technique: RNA Bind-n-Seq; molecule type: RNA; matrix: in vitro; tested at: 365 nM; reference: no-protein control; direction: higher = stronger binding; endpoint: RBNS enrichment (R)
Target: RNA binding protein fox-1 homolog 2, RRM domain, GST-SBP tag (RBFOX2, Homo sapiens, UniProt O43251-10, residues 100-194)
Notes: natural RNA segment, single round, ends assumed
Residues (chain): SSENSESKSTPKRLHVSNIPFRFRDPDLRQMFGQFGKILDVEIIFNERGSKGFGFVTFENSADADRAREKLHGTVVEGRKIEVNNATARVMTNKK
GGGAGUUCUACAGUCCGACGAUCGAAUGGAGGCUUACUAACCAGGUAAGCCUUCUAUGCAUCCACACCAAAAUCCUGCAGAAUGUAAGUAAGCUCUGCUUUAUAAGAUGGGUUCACCUUCAUCGCAGACUGAAUGGAAUUCUCGGGUGCCAA: 0.319
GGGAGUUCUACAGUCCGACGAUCUAUUUUUUCUAGCCUAUGUAGUUGUUCAGCUUUUAACAAAUAACUCUGGCAGUAUUUUAAACAUGCUAGCAUUUCAGGGGUAUUCUACUUAAAAACAAAACAAAACUGGGUGGAAUUCUCGGGUGCCAA: 0.557
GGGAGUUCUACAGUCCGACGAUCUUGUGCUUUGAAGAGAGUGAAUUUUGGAUAGUCUUGUGAUUCUCAGACUAACUUCCAGAAUUAUACUUUAACCCCUCCCAGAUAUGGUCCGCCUUUGGCAUUGUGUGUACUGGAAUUCUCGGGUGCCAA: 0.78
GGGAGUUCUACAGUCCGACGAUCAAGGAGCUGUUUGCCCUGAAACCCAUGAACUGCCCAGGACACUGGCUUAUGUUUGAUCAUCGGCCAAGGUCCUGGCGAGAACUGCCUCUGCGGCUAGCUGAUUUUGGGGUUGGAAUUCUCGGGUGCCAA: 0.211
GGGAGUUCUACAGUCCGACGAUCCAGGGGGGAAGGACACUGGAGACUUUCUUGUGGGGCUUACUUAGCCUUCUGGUUACAGACUAUUUCCAUGCUAGAAAAUACAUAUUUUAAAAUAGAAGGAAAAACACAGAUGGAAUUCUCGGGUGCCAA: 0.753
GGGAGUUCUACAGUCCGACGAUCCAGAGGUGGCACAGGACAGUAAAGGAGAUGCUGUGCUGGCCUUCAGCCUGGACAGGGUCUCUGCUGACUGCCAGGGGCGGGGGCUCUGCAUAGCCAGGAUGACGGCUUUCUGGAAUUCUCGGGUGCCAA: 1.38
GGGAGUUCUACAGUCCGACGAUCGCUCACUAGCAGGACACUGAAGGGUGUCCUUCAUCAUUAAGGCAGUGUGAUGUCAUGUUUGGUCAUUUUUCUUUUGUCCAGGGAAUGGAUAAUGACAUUCUGUCACCCACUGGAAUUCUCGGGUGCCAA: 0.376
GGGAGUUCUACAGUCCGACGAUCAGAGUAGCUAGGAUUACAGAUACGUGCCACCAUACCCGGCUAAUUUUUAUAUUUUUAGAGACAGGGAUUCAACAUGUUGGUUAGGCUGGUCUUGAACUCCUCACCUCAGGUGGAAUUCUCGGGUGCCAA: 0.36
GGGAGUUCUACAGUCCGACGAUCCGCCAGGCCCGCGCCAGCUGAGGCCUCAGACUAGCCAGGCAAGAGCCGUCUGACCAGUUGGCUGGCGGUGGUUCUGGUGGAGCACGAGGGAGCCCGGGUGGUGCCCUGAGUGGAAUUCUCGGGUGCCAA: 0.356
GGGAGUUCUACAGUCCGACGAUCUCUCUAGCUCACUGGCUCUGUGGGCUUGGGCUCUGCCCCUACAACGGCUCUCAGAAGCAUUCACACGCACAGAUGUGCAACCUCAGCCAGAAGUUGAAGCUCUUUAAGCCUGGAAUUCUCGGGUGCCAA: 0.252
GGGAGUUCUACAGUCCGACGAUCCUCGACCCUGUUUCUUUCCAUUCAAGAACCGUCGGUCCCCUUGUAAUAAAGGUGGUAGAUUUCAUUAAGGUUUUAGAUCAAAACUUUGAAUAAAUCAAAAACGUUCAUUCUGGAAUUCUCGGGUGCCAA: 0.269
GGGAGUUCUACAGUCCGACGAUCGAGAUGAGUUCCUUGUAGGUACCAGCUUCUGGCUCAAGAGUUGAAGGUGCCAUCGCAGGGUCAGGCCUGCCCUGUCCCGAAGUGAUCUCCUGGAAGACAAGUGCCUUCUCUGGAAUUCUCGGGUGCCAA: 0.308

Set 3 — technique: DHFR PCA, deep sequencing; matrix: yeast; added: (+)-ABA 17 µM; reference: wild-type fitted maximum; direction: higher = stronger binding; endpoint: relative binding score
Target: ABI1, truncated, D143A, DHFR fusion (Arabidopsis thaliana)
Notes: methotrexate growth selection, single substitutions
Starting sequence: PYL1, truncated, DHFR fusion (Arabidopsis thaliana); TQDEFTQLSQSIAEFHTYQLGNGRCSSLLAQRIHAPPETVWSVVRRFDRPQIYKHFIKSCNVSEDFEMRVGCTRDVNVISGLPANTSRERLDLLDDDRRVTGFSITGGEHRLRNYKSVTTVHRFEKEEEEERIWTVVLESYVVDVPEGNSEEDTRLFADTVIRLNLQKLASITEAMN
R46S: 68.9%
A158M: 55.6%
T160N: 60.7%
V137L: 28.1%
L28D: 12.2%
R49M: 80.2%
D144W: -4.68%
V44Q: -22.3%
V43H: 23%
V145T: 62%
E139A: 31.6%
D95Y: 9.24%
R90D: -20.6%
V137M: -6.16%
I52N: 54.4%
S11E: 92.3%
T106N: 33.6%
T160Q: 36.7%
Y141L: -11.9%
E131N: 94.4%
E4T: 81.1%
F15L: 56.2%
Q19Y: 73.5%
I105Q: -25.6%
T173K: -5.42%

Set 4 — technique: protein binding microarray; molecule type: double-stranded DNA, one strand shown; matrix: in vitro; tested at: not given; reference: not given; direction: higher = stronger binding; endpoint: E-score
Target: Histone acetyltransferase KAT6A, both winged helices, GST fusion (KAT6A, Homo sapiens, UniProt Q92794, residues 1-181)
Notes: 8-mer, flanks averaged, mean of 2 arrays, mostly near background
Target sequence (chain): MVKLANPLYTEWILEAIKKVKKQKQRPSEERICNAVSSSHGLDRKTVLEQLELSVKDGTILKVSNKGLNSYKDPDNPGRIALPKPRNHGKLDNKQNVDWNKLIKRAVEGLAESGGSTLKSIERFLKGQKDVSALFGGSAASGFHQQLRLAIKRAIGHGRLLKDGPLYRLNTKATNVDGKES
TTTGAAAA: -0.0417
GATATAAA: -0.113
CAGTCGGC: 0.139
AGGATCCT: -0.192
CCACGGCA: 0.25
CATGAGCA: -0.105
CCGGGTTA: 0.249
CTATAGTA: 0.0674
CGAAGCCG: 0.217
AGCGCAAA: 0.225
ACGGTTTG: 0.187
CATTTAGC: -0.105
GAATGCTC: -0.142
GGATTTCA: -0.0881
GCCGTATA: 0.179
AACAGGAC: -0.157
AGGAACAC: -0.0118
AATTCCAA: -0.171
CTAATCCA: -0.155
AACGCGGG: 0.269
CTGACCTC: -0.102

Set 5 — technique: RNA Bind-n-Seq; molecule type: RNA; matrix: in vitro; tested at: 200 nM; notes: whole 134-nt RNA, ends assumed; added: 150 mM KCl; reference: input library; direction: higher = stronger binding; endpoint: log2 enrichment
Target: Ras GTPase-activating protein-binding protein 1, full length (G3BP1, Homo sapiens, UniProt Q13283)
Sequence of UniProt Q13283 (whole entry, looked up): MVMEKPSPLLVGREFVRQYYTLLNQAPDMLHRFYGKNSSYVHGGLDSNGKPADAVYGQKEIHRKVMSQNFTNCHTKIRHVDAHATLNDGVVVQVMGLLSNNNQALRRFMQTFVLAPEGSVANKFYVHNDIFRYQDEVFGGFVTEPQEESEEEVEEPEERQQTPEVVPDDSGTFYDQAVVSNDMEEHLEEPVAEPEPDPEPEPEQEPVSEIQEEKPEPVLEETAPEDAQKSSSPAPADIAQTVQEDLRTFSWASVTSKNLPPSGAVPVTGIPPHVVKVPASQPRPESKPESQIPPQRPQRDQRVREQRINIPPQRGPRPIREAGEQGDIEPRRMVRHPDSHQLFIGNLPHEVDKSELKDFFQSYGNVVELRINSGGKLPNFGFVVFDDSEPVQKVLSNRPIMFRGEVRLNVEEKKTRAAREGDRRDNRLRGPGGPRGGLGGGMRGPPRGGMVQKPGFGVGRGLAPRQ
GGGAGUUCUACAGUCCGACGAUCUCAAGUCCUGUGCUACACAUCGUAUGUACCGAAUCGGUGGAAAAAGGUUUUUGGAAAGUAUUAUGUUACGCCGUUCGGAUCUGCACUUCCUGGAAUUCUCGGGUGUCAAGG: -0.913
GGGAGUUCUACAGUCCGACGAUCCCUCAAGUCCUGUGCUACACAUCGUAUGUACCGAAUCGGAGGGGAGGGGAGGAAAGUAUUAUGUUACGCCGUUCGGAUCUGCACUUCCAGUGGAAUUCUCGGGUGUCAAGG: 0.49
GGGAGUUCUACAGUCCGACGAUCACUUUGUCAGAUAUUGCUAGGGACCAGUGAGAUAGAUAAUCCAAAAAUAAUAAUUUGACUUUGGUUGAGUAUGUCAUUACCACAGUGUUAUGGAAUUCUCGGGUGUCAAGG: -2.04
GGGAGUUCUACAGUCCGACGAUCUUUCCAAGAAGUGCACUGAAAAUGACAUCCGAGUCAUGUUCUCUUCGUUUGGACAGAUUGAAGAAUGCCGGAUAUUGCGGGGACCUGAUGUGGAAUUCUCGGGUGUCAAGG: 0.296
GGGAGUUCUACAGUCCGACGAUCGCAGGAAGUAAAAACAAAUGGAAAUGCUUCGGAUAGUGGCAGGGGUGGGGGUUGCUAAGGAAAGGGUGGGAUGGGAGUGGGUAAAAAGUUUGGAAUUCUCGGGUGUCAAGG: 0.381
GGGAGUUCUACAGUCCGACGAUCCCUGUGCUACACAUCGUAUGUACCGAAUCGGGUUUUUGGGAAAAAAAGGGUUUUUUUGGGAAAGUAUUAUGUUACGCCGUUCGGAUCUGCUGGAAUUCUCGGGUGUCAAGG: -0.954
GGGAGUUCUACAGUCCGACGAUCAAGUCCUGUGCUACACAUCGUAUGUACCGAAUCGGGGUUUGGGGUUUGGGGUGGGGAAAGUAUUAUGUUACGCCGUUCGGAUCUGCACUUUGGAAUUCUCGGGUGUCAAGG: 0.779
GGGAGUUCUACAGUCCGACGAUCUGUGCUACACAUCGUAUGUACCGAAUCGGGGAAAAAAAGGGAAAAAAAGGGGAAAAAAAGGGAAAGUAUUAUGUUACGCCGUUCGGAUCUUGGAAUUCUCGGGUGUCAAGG: -0.669
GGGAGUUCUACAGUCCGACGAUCCACAGACAACACGCACCCACACAGACACAGAGGGAAGGGGUUGGGAUGGGGACAGAGUGCACAGCAGGGCGGGGUAGGACCCCAGCCCCUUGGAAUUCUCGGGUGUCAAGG: 1.73
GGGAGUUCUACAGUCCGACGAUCGUGCUGGCUGGCCACGGUCACCUGUAUUCCCGCAUCCCAGGCCUGCUCAGCCCCCAUCCCCUGCUGCAGCUGAGCUACACGGCCACCGACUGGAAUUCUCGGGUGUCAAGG: 1.03
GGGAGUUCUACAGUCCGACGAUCUCAAGUCCUGUGCUACACAUCGUAUGUACCGAAUCGGUUUGGAAAGGUUUUUGGAAAGUAUUAUGUUACGCCGUUCGGAUCUGCACUUCCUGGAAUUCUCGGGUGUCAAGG: -0.781
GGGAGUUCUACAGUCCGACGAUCUCCUGUGCUACACAUCGUAUGUACCGAAUCGGGAAAAAGGGUUUUUGGGUUUUUUUGGGAAAGUAUUAUGUUACGCCGUUCGGAUCUGCAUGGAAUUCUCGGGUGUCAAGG: -0.561
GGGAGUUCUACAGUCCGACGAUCUAACUUGAGAGGAGGAUCUGAUGGAUAUGGCAGUGGACGUGGAUUUGGGGAUGGCUAUAAUGGGUAUGGAGGAGGACCUGGAGGUGGCAAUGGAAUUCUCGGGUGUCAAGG: 0.412
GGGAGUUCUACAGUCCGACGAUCUGGCCCUGGUGGCAUGCGGGGAGGAAGAGGUGGCCUCACGGAUCGUGGUGGUCCCGGUGGAAUGUUCAGAGGUGGCCGUGGUGGAGACAGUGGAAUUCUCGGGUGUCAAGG: 0.412

Repeated from above (set 4):
CCGGGTTA: 0.249
GGATTTCA: -0.0881
CTATAGTA: 0.0674
CTGACCTC: -0.102
ACGGTTTG: 0.187
AATTCCAA: -0.171
CGAAGCCG: 0.217
